Measured values pooled from the literature.
Several values in a cell are separate wells, animals, samples, runs or records. ± gives the spread as reported.
Sequence of UniProt P30874 (whole entry, looked up): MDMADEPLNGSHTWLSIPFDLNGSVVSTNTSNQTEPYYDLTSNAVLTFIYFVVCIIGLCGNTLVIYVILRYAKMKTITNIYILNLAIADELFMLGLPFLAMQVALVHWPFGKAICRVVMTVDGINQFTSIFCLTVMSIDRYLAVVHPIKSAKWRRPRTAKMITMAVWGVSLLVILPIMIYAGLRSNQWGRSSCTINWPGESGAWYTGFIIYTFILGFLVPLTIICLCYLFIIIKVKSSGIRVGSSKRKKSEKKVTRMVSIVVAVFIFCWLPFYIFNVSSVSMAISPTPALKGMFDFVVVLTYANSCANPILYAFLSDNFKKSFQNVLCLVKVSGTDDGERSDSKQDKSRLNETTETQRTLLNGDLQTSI
Sequence of UniProt P50750 (whole entry, looked up): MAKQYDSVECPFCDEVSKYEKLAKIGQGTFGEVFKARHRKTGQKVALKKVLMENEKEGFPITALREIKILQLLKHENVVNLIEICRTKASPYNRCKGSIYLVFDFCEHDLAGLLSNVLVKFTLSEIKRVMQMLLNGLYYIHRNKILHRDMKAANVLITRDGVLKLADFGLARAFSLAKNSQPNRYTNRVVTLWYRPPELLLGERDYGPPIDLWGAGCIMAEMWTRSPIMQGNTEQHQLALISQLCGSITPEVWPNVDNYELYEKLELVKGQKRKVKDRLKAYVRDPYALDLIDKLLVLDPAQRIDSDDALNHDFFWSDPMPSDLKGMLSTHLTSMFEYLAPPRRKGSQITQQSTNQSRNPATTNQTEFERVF
Sequence of UniProt P24385 (whole entry, looked up): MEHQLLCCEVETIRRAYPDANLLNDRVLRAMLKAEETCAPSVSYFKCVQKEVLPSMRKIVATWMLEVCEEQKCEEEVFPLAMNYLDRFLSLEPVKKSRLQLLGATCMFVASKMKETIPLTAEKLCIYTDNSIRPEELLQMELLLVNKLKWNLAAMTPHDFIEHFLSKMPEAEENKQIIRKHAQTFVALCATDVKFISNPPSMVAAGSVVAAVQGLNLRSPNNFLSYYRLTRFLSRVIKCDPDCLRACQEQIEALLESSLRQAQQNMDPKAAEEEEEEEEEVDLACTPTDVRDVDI
Sequence of UniProt P42575 (whole entry, looked up): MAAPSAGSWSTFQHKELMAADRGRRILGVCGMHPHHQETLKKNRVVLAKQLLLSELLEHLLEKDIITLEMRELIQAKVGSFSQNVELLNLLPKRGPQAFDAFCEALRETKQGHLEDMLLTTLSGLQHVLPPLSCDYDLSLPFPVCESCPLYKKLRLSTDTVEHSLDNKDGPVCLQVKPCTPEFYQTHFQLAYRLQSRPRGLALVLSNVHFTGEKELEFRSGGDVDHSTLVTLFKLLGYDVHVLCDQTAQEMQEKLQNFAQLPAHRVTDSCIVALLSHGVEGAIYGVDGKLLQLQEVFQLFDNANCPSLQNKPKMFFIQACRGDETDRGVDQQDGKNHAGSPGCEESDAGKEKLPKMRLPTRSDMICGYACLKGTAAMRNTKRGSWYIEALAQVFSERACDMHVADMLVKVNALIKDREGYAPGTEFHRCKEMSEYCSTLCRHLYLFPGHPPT
Sequence of UniProt Q04760 (whole entry, looked up): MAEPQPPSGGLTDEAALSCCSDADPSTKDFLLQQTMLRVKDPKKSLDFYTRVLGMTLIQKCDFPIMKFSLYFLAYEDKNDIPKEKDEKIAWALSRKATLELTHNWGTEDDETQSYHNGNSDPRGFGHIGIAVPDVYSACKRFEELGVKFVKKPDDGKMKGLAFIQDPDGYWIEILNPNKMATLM
Sequence of UniProt Q01650 (whole entry, looked up): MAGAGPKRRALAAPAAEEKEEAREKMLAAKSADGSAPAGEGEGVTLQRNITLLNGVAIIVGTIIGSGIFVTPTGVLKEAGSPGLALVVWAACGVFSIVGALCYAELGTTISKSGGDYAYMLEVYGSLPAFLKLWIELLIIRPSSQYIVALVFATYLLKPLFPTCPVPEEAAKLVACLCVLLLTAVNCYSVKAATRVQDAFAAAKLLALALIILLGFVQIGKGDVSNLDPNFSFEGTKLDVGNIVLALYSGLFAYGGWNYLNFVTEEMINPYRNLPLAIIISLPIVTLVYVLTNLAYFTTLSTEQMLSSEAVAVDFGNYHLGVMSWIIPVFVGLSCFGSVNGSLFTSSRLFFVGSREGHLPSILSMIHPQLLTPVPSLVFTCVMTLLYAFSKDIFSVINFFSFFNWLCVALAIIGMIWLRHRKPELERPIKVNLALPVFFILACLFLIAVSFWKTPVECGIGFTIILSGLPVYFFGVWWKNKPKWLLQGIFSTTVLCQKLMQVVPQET
Sequence of UniProt P37023 (whole entry, looked up): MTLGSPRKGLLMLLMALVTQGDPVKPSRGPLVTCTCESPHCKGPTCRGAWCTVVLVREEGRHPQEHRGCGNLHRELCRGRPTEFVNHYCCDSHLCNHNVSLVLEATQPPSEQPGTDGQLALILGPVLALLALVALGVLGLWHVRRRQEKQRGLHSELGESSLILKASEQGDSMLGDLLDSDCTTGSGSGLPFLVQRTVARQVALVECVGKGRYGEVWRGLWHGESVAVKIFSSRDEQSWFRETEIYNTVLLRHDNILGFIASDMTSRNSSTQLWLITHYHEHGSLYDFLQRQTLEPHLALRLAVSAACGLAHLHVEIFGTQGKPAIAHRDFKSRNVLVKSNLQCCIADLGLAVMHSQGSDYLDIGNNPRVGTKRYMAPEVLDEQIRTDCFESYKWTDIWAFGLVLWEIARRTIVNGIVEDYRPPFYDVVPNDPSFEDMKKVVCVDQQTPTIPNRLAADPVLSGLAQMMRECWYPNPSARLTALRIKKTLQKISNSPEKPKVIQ
Sequence of UniProt P28074 (whole entry, looked up): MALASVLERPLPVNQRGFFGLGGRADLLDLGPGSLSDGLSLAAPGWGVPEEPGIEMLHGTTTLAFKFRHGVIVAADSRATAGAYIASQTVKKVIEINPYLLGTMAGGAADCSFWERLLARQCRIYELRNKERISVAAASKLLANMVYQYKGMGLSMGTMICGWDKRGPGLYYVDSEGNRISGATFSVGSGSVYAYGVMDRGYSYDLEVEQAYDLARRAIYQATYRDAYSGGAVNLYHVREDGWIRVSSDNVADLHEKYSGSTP
Sequence of UniProt O14786 (whole entry, looked up): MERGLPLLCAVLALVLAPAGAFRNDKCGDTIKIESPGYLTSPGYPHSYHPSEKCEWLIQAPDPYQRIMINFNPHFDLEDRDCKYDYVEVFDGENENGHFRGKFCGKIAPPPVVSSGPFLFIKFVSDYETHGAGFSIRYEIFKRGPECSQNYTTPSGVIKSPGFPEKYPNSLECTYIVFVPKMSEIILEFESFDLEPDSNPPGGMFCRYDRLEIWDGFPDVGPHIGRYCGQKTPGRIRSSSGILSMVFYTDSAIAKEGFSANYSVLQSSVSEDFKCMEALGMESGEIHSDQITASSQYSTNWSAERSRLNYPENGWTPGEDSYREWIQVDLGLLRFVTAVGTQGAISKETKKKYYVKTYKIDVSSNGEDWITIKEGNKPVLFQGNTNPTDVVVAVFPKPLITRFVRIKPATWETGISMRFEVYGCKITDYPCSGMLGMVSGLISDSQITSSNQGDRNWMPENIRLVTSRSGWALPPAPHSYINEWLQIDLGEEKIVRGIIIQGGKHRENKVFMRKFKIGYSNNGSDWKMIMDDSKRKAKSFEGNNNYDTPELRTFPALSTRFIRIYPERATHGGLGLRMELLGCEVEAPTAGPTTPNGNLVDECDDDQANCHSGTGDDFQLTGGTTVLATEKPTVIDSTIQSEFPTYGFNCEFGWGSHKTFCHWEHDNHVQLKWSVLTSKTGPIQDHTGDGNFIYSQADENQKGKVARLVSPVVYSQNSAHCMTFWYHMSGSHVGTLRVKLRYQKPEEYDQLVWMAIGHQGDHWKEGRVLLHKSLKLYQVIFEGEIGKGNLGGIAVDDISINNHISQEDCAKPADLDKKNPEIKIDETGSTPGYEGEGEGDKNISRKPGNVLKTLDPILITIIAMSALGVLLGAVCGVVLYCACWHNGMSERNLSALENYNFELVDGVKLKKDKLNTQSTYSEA
Sequence of UniProt O75469 (whole entry, looked up): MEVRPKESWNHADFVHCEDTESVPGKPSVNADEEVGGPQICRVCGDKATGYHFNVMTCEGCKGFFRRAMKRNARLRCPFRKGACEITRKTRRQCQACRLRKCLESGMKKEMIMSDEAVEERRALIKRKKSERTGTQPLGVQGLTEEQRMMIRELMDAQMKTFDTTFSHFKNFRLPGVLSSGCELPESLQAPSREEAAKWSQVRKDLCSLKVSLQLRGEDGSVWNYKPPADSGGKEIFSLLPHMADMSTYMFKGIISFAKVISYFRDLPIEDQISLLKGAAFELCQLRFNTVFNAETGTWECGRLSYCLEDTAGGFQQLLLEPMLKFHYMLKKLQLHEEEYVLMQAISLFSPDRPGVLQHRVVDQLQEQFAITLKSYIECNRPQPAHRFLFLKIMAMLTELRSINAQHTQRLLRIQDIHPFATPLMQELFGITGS
Sequence of UniProt P14061 (whole entry, looked up): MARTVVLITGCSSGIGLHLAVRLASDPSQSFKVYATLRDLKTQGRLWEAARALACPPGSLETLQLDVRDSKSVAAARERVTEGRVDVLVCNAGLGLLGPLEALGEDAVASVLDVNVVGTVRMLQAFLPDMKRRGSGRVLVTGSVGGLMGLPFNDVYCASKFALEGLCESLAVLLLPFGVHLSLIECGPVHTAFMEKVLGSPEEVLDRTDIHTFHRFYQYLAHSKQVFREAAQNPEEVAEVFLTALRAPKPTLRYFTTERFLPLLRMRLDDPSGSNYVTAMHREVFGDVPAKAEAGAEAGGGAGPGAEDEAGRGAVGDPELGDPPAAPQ

SMILES | target | test | test system | setting | IC50
CC1CC2(N=CCS2)C2(O)OC3CC4(C)C(CC3OC2O1)CC1OC12C4C(O)C(=O)C1(C)C(C3=CC(=O)OC3)CCC12O (stereo not shown) | Na+/K+-ATPase Oncopeltus fasciatus | – | neural tissue | – | 91 µM
COc1cc(OC)cc(-c2nc3ccc(C(=O)NCCCN4CCN(c5cccc(C)c5C)CC4)cc3n2C2CCC2)c1 | Activin receptor type-1-like (ACVRL1, Homo sapiens, UniProt P37023) | target engagement in cells, BRET | – | – | > 30 µM
CC(C)NCc1ccc(C[C@@H]2NC(=O)[C@@H](Cc3c[nH]c4ccccc34)NC(=O)[C@H](Cc3ccc(O)cc3)NC(=O)[C@H](NC(=O)[C@@H](N)Cc3ccc(Cl)cc3)CSSC[C@@H](C(=O)N[C@@H](Cc3ccc4ccccc4c3)C(N)=O)NC(=O)[C@H]([C@@H](C)O)NC2=O)cc1 | Somatostatin receptor type 2 (SSTR2, Homo sapiens, UniProt P30874) | ligand displacement, radioligand | – | cell membranes | ~0.35 µM and 0.24 µM and 0.665 µM
C=C(NC(=O)C(=C)NC(=O)c1csc(C2=NC3c4csc(n4)C4NC(=O)c5csc(n5)C(C(C)(O)C(C)O)NC(=O)C5CSC(=N5)C(=CC)NC(=O)C(C(C)O)NC(=O)c5csc(n5)C3(CC2)NC(=O)C(CO)NC(=O)C(=C)NC(=O)C(C)NC(=O)C(C(C)CC)NC2C=Cc3c(C(C)O)cc(nc3C2O)C(=O)OC4C)n1)C(N)=O (stereo not shown) | Proteasome Macropain subunit MB1 (PSMB5, Homo sapiens, UniProt P28074) | chymotrypsin-like activity, inhibitor | purified 20S proteasome | 15 min preincubation, 37 °C, with: Suc-Leu-Leu-Val-Tyr-AMC substrate | 1.11 ± 0.06 µM
CC(C)[C@H](NC(=O)c1ccc2ccccc2n1)C(=O)N[C@@H](CC(=O)O)C(=O)N[C@H](C(=O)N[C@@H](C)C(=O)N[C@@H](CC(=O)O)C(=O)COc1c(F)cccc1F)C(C)C | Caspase-2 (Homo sapiens, UniProt P42575) | enzyme activity, inhibitor, absorbance | – | – | 0.0074 µM
Nc1ccc(/N=N/c2ccc(S(N)(=O)=O)cc2)c2ccc(O)cc12 | Lactoylglutathione lyase (GLO1, Homo sapiens, UniProt Q04760) | enzyme activity, inhibitor | – | – | 23 µM
N[C@@H](Cc1c[nH]c2ccc(OCc3ccc(-c4ccsc4)cc3)cc12)C(=O)O | Large neutral amino acids transporter small subunit 1 (SLC7A5, Homo sapiens, UniProt Q01650) | transporter uptake, inhibitor, radiometric | – | – | 19 µM
N=C(N)NCCC[C@H](NC(=O)[C@@H]1CCCN1C(=O)[C@H](CC(N)=O)NC(=O)[C@H](CCCNC(=N)N)NC(=O)[C@@H]1CCCN1C(=O)[C@H](CCCCN)NC(=O)[C@H](CCCCN)NC(=O)[C@H](CCC(N)=O)NC(=O)[C@H](CC(=O)O)NC(=O)[C@@H](N)Cc1c[nH]c2ccccc12)C(=O)O | Neuropilin-1 (NRP1, Homo sapiens, UniProt O14786) | inhibitor, plate binding | – | 1 h, 25 °C | 4.7 µM
Cc1cc(C)c(S(=O)(=O)Nc2ccc3c(c2)nc(CCCCCCCN)n3Cc2ccccc2)c(C)c1 | Nuclear receptor subfamily 1 group I member 2 (NR1I2, Homo sapiens, UniProt O75469) | ligand displacement, TR-FRET | – | – | 0.719 µM
NCC(=O)Oc1ccc2c(=O)c(Oc3ccccc3)coc2c1 | Cyclin-dependent kinase 9 (CDK9, Homo sapiens, UniProt P50750) | enzyme activity, inhibitor, ATP luminescence | – | – | 3.9 µM
COC(=O)N[C@H]1CC[C@@H](Nc2cc(NCc3ccccc3F)n3ncc(C(C)C)c3n2)CC1 | Cyclin-dependent kinase 9, with cyclin T (CDK9, Homo sapiens, UniProt P50750) | enzyme activity, inhibitor, luciferase kinase | – | – | 0.44 µM
CC[C@H](C)[C@H](NC(=O)[C@H](CC(C)C)NC(=O)[C@H](C)NC(=O)c1ccc(CN2CCNCC2)cc1)C(=O)N[C@@H](Cc1ccccc1)C(N)=O | G1/S-specific cyclin-D1, with CDK4 (Homo sapiens, UniProt P24385) | binding to cyclin groove, inhibitor, fluorescence polarization competition | – | – | 51.5 ± 21.3 µM
C[C@]12CC[C@@H]3c4ccc(O)cc4CC[C@H]3[C@@H]1[C@H](OCCC#N)CC2=O | 17-beta-hydroxysteroid dehydrogenase type 1 (HSD17B1, Homo sapiens, UniProt P14061) | enzyme activity, inhibitor, radiometric | – | – | 3.2 µM

A few entries again:
SMILES | target | test | test system | setting | IC50
N[C@@H](Cc1c[nH]c2ccc(OCc3ccc(-c4ccsc4)cc3)cc12)C(=O)O | Large neutral amino acids transporter small subunit 1 (SLC7A5, Homo sapiens, UniProt Q01650) | transporter uptake, inhibitor, radiometric | – | – | 19 µM
